Measured values from different studies.
Organism: Klebsiella pneumoniae

Structure (SMILES) | assay | test system | setting | MIC
CC1(C)C(NC(=O)C(=NOC2(C(=O)O)CCC2)c2csc(N)n2)C(=O)N1OS(=O)(=O)O (centres unmarked) | agar dilution | 09-20, NDM-1 | – | 0.25 µg/mL
N=C(N)NCCC[C@@H]1NC(=O)[C@H](CCCNC(=N)N)NC(=O)[C@@H](CCCNC(=N)N)NC(=O)[C@H](C(c2ccccc2)c2ccccc2)NC(=O)[C@H](C(c2ccccc2)c2ccccc2)NC(=O)[C@H](C(c2ccccc2)c2ccccc2)NC(=O)[C@H](CCCNC(=N)N)NC1=O | – | ATCC BAA1705, KPC-2 carbapenem-resistant | – | > 64 µg/mL
CC[C@H](C)[C@H](NC(=O)[C@H](CCCCN)NC(=O)[C@@H](NC(=O)[C@@H](NC(=O)[C@H](CC(C)C)NC(=O)[C@H](CCCNC(=N)N)NC(=O)[C@@H](NC(=O)[C@H](CC(C)C)NC(=O)[C@H](CCCNC(=N)N)NC(=O)CNC(=O)[C@H](Cc1ccccc1)NC(=O)[C@@H](N)CCCNC(=N)N)[C@@H](C)CC)[C@@H](C)CC)C(C)C)C(=O)N[C@@H](C)C(=O)N[C@@H](CCCNC(=N)N)C(=O)N[C@@H](CCCNC(=N)N)C(=O)N[C@@H](C)C(=O)N[C@@H](Cc1c[nH]cn1)C(=O)N[C@@H](CCCNC(=N)N)C(=O)N[C@@H](C)C(=O)N[C@@H](CCCNC(=N)N)C(=O)N[C@@H](CO)C(=O)N[C@@H](C)C(=O)N[C@H](C(=O)N[C@@H](CCCCN)C(=O)N[C@@H](C)C(=O)N[C@@H](C)C(=O)N[C@@H](CO)C(=O)N[C@@H](CC(N)=O)C(=O)N[C@H](C(=O)N[C@@H](C)C(=O)N[C@@H](C)C(=O)N[C@@H](CC(C)C)C(=O)N[C@@H](C)C(=O)N[C@@H](Cc1c[nH]cn1)C(=O)NCC(=O)N[C@@H](C)C(N)=O)C(C)C)C(C)C | bacterial growth, broth microdilution | cation-adjusted Mueller Hinton broth | 18 h, 37 °C | ≤ 0.064 µM
CC1(C)[C@H](NC(=O)/C(=N\OCCN)c2nsc(N)n2)C(=O)N1OS(=O)(=O)O | agar dilution | 2146, NDM-1 | – | > 64 µg/mL
COc1ccc2ccc(O)c(/C=N/[C@H]3CCCC[C@H]3/N=C/c3cc(C(C)(C)C)ccc3O)c2c1 | bacterial growth, broth microdilution | carbapenem-resistant | – | > 40 µM
CC[C@H](C)[C@H](NC(=O)[C@@H](CCCNC(=N)N)NC(=O)[C@H](CCCNC(=N)N)NC(=O)[C@@H]1CCCN1C(=O)[C@@H]1CCCN1C(=O)[C@H](CCCNC(=N)N)NC(=O)[C@@H]1CCCN1C(=O)[C@H](CCCNC(=N)N)NC(=O)[C@@H]1CCCN1C(=O)[C@@H](NC(=O)[C@H](Cc1ccc(O)cc1)NC(=O)[C@@H]1CCCN1C(=O)[C@@H]1CCCN1C(=O)[C@H](CCCCN)NC(=O)[C@H](CC(=O)O)NC(=O)[C@@H](N)C(C)C)C(C)(C)C)C(=O)N[C@@H](Cc1ccc(O)cc1)C(=O)N[C@@H](CC(N)=O)C(=O)N[C@H](CCCNC(=N)N)C(N)=O | broth microdilution | DSM 681 | 18 h, 37 °C, 25% MHB2 | 4 µg/mL
CCCCCCCCCCCCCCCCCCn1cc(CN(CCC(=O)NCCN(CCC(=O)NCCN(CCC(=O)NCCN(C)C)CCC(=O)NCCN(C)C)CCC(=O)NCCN(CCC(=O)NCCN(C)C)CCC(=O)NCCN(C)C)CCC(=O)NCCN(CCC(=O)NCCN(CCC(=O)NCCN(C)C)CCC(=O)NCCN(C)C)CCC(=O)NCCN(CCC(=O)NCCN(C)C)CCC(=O)NCCN(C)C)nn1 | – | ATCC BAA-1705 KPC, LB broth | 18 h | > 96 µg/mL
CC[C@H](C)[C@H](NC(=O)[C@H](CCCNC(=N)N)NC(=O)[C@H](Cc1c[nH]c2ccccc12)NC(=O)[C@H](Cc1c[nH]c2ccccc12)NC(=O)[C@H](CCCNC(=N)N)NC(=O)[C@@H](N)CCCNC(=N)N)C(=O)N[C@@H](Cc1c[nH]c2ccccc12)C(N)=O | – | 13883 | – | 128 µg/mL
COc1ccc2ccc(O)c(/C=N/[C@H]3CCCC[C@H]3/N=C/c3c(C)cccc3O)c2c1 | bacterial growth, broth microdilution | carbapenem-resistant | – | > 40 µM
CC(=O)N[C@H](Cc1ccccc1F)C(=O)N[C@@H](CCN)C(=O)N[C@H](C(=O)N[C@@H](CCN)C(=O)N[C@H]1CCNC(=O)[C@H]([C@@H](C)O)NC(=O)[C@H](CCN)NC(=O)[C@H](CCN)NC(=O)[C@H](CC(C)C)NC(=O)[C@@H](Cc2ccccc2)NC(=O)[C@H](CCN)NC1=O)[C@@H](C)O | broth microdilution | ATCC 13883, colistin-susceptible | – | > 64 µg/mL
COc1ccc2ccc(O)c(/C=N/[C@H]3CCCC[C@H]3/N=C/c3c(O)cccc3OC)c2c1 | bacterial growth, broth microdilution | carbapenem-resistant | – | > 40 µM
CC(C)(O/N=C(\C(=O)N[C@@H]1C(=O)N(OS(=O)(=O)O)C1(C)C)c1nsc(N)n1)C(=O)O | agar dilution | 2146, NDM-1 | – | > 64 µg/mL
CC(C)C[C@H](NC(=O)[C@@H](NC(=O)[C@H](CCCNC(=N)N)NC(=O)[C@H](CCC(N)=O)NC(=O)[C@H](Cc1ccccc1)NC(=O)[C@H](Cc1ccc(O)cc1)NC(=O)[C@H](CC(N)=O)NC(=O)[C@H](Cc1c[nH]c2ccccc12)NC(=O)[C@@H](NC(=O)[C@H](CCCNC(=N)N)NC(=O)[C@H](CCCCN)NC(=O)[C@@H](N)Cc1ccccc1)C(C)C)C(C)C)C(=O)N[C@H](C(=O)N[C@@H](CCCCN)C(=O)N[C@@H](CCCCN)C(=O)N[C@@H](Cc1ccc(O)cc1)C(N)=O)C(C)C | broth dilution | ATCC 700603 | – | 12.5 µM
C#CCNC(=O)[C@H]1NC(=O)[C@H]2NC(=O)[C@H](NC(=O)[C@@H]3NC(=O)[C@H](CC(N)=O)NC(=O)[C@H](NC(=O)[C@@H](CC(C)C)NC)[C@H](O)c4ccc(c(Cl)c4)Oc4cc3cc(c4O[C@@H]3O[C@H](CO)[C@@H](O)[C@H](O)[C@H]3O[C@H]3C[C@](C)(N)[C@H](O)[C@H](C)O3)Oc3ccc(cc3Cl)[C@H]2O)c2ccc(O)c(c2)-c2c(O)cc(O)cc21 | broth microdilution | ATCC 13883, cation-adjusted Mueller-Hinton broth | 18 to 20 h, 37 °C, 0.002% polysorbate 80 | > 128 µg/mL
CC1(C)[C@H](NC(=O)/C(=N\OCCN)c2csc(N)n2)C(=O)N1OS(=O)(=O)O | agar dilution | 2146, NDM-1 | – | > 64 µg/mL
CC[C@H](C)[C@H](NC(=O)[C@@H](CCCNC(=N)N)NC(=O)[C@H](CCCNC(=N)N)NC(=O)[C@@H]1CCCN1C(=O)[C@@H]1CCCN1C(=O)[C@H](CCCCNC(=N)N)NC(=O)[C@@H]1CCCN1C(=O)[C@H](CCCNC(=N)N)NC(=O)[C@@H]1CCCN1C(=O)[C@H](CC(C)C)NC(=O)[C@H](Cc1ccc(O)cc1)NC(=O)[C@@H]1CCCN1C(=O)[C@@H]1CCCN1C(=O)[C@H](CCCCN)NC(=O)[C@H](CC(=O)O)NC(=O)[C@@H](N)C(C)C)C(=O)N[C@@H](Cc1ccc(O)cc1)C(=O)N[C@@H](CC(N)=O)C(=O)N[C@H](CCCNC(=N)N)C(N)=O | broth microdilution | DSM 681 | 18 h, 37 °C, 25% MHB2 | 4 µg/mL
N=C(N)NCCC[C@@H]1NC(=O)[C@H](CCCNC(=N)N)NC(=O)[C@@H](CCCNC(=N)N)NC(=O)[C@@H](CCCNC(=N)N)NC(=O)[C@@H](C(c2ccccc2)c2ccccc2)NC(=O)[C@@H](Cc2c[nH]c3ccccc23)NC(=O)[C@@H](C(c2ccccc2)c2ccccc2)NC1=O | – | 1188718, multidrug-resistant | – | > 64 µg/mL
CC[C@H](C)[C@H](NC(=O)[C@@H](CCCNC(=N)N)NC(=O)[C@H](CCCNC(=N)N)NC(=O)[C@H](CC(N)=O)NC(=O)[C@H](Cc1c[nH]c2ccccc12)NC(=O)[C@H](CCCNC(=N)N)NC(=O)[C@@H]1CCCN1C(=O)[C@H](CCCNC(=N)N)NC(=O)[C@@H]1CCCN1C(=O)[C@H](CC(C)C)NC(=O)[C@H](Cc1ccc(O)cc1)NC(=O)[C@@H]1CCCN1C(=O)[C@@H]1CCCN1C(=O)[C@H](CCCCN)NC(=O)[C@H](CC(=O)O)NC(=O)[C@@H](N)C(C)C)C(=O)N[C@@H](Cc1ccc(O)cc1)C(=O)N[C@@H](CC(N)=O)C(=O)N[C@H](CCCNC(=N)N)C(N)=O | broth microdilution | DSM 681 | 18 h, 37 °C, 25% MHB2 | 2 µg/mL
CC(=O)N[C@H](Cc1ccc(F)cc1)C(=O)N[C@@H](CCN)C(=O)N[C@H](C(=O)N[C@@H](CCN)C(=O)N[C@H]1CCNC(=O)[C@H]([C@@H](C)O)NC(=O)[C@H](CCN)NC(=O)[C@H](CCN)NC(=O)[C@H](CC(C)C)NC(=O)[C@@H](Cc2ccccc2)NC(=O)[C@H](CCN)NC1=O)[C@@H](C)O | broth microdilution | ATCC 13883, colistin-susceptible | – | > 64 µg/mL
CC[C@H](C)[C@H](NC(=O)[C@@H](CCCNC(=N)N)NC(=O)[C@H](CCCNC(=N)N)NC(=O)[C@@H]1CCCN1C(=O)[C@@H]1CCCN1C(=O)[C@H](CCCNC(=N)N)NC(=O)[C@@H]1CCCN1C(=O)[C@H](CCCNC(=N)N)NC(=O)[C@@H]1CCCN1C(=O)[C@H](CC(C)C)NC(=O)[C@H](Cc1ccc(O)cc1)NC(=O)[C@@H]1CCCN1C(=O)[C@H](Cc1ccc(O)cc1)NC(=O)[C@H](CCCCN)NC(=O)[C@H](CC(=O)O)NC(=O)[C@@H](N)C(C)C)C(=O)N[C@@H](Cc1ccc(O)cc1)C(=O)N[C@@H](CC(N)=O)C(=O)N[C@H](CCCNC(=N)N)C(N)=O | broth microdilution | DSM 681 | 18 h, 37 °C, 25% MHB2 | 16 µg/mL
CCn1c(-c2ccc(F)cc2)c(-c2ccc(F)cc2)n(Cc2ccccc2)c1=[Se] | broth microdilution | carbapenem-resistant BAA-1705 | 24 h | > 40 µM
CN[C@@H]1[C@H](O)[C@H](NC)[C@H]2O[C@]3(O)[C@H](O[C@@H]2[C@H]1O)O[C@H](C)C[C@H]3NC(=O)Cc1cscn1 | microbial growth, broth dilution | ATCC33495 | – | 100 µg/mL
CCCCCCCC(=O)N[C@@H](CCN)C(=O)N[C@H](C(=O)N[C@@H](CCN)C(=O)N[C@H]1CCNC(=O)[C@H]([C@@H](C)O)NC(=O)[C@H](CCN)NC(=O)[C@H](CCN)NC(=O)[C@H](Cc2ccccc2)NC(=O)[C@@H](CCCCCC)NC(=O)[C@H](CCN)NC1=O)[C@@H](C)O | broth microdilution | ATCC 13883, colistin-susceptible | – | 1 to 2 µg/mL

A few entries again:
Structure (SMILES) | assay | test system | setting | MIC
CC[C@H](C)[C@H](NC(=O)[C@@H](CCCNC(=N)N)NC(=O)[C@H](CCCNC(=N)N)NC(=O)[C@@H]1CCCN1C(=O)[C@@H]1CCCN1C(=O)[C@H](CCCNC(=N)N)NC(=O)[C@@H]1CCCN1C(=O)[C@H](CCCNC(=N)N)NC(=O)[C@@H]1CCCN1C(=O)[C@H](CC(C)C)NC(=O)[C@H](Cc1ccc(O)cc1)NC(=O)[C@@H]1CCCN1C(=O)[C@H](Cc1ccc(O)cc1)NC(=O)[C@H](CCCCN)NC(=O)[C@H](CC(=O)O)NC(=O)[C@@H](N)C(C)C)C(=O)N[C@@H](Cc1ccc(O)cc1)C(=O)N[C@@H](CC(N)=O)C(=O)N[C@H](CCCNC(=N)N)C(N)=O | broth microdilution | DSM 681 | 18 h, 37 °C, 25% MHB2 | 16 µg/mL
CN[C@@H]1[C@H](O)[C@H](NC)[C@H]2O[C@]3(O)[C@H](O[C@@H]2[C@H]1O)O[C@H](C)C[C@H]3NC(=O)Cc1cscn1 | microbial growth, broth dilution | ATCC33495 | – | 100 µg/mL
C#CCNC(=O)[C@H]1NC(=O)[C@H]2NC(=O)[C@H](NC(=O)[C@@H]3NC(=O)[C@H](CC(N)=O)NC(=O)[C@H](NC(=O)[C@@H](CC(C)C)NC)[C@H](O)c4ccc(c(Cl)c4)Oc4cc3cc(c4O[C@@H]3O[C@H](CO)[C@@H](O)[C@H](O)[C@H]3O[C@H]3C[C@](C)(N)[C@H](O)[C@H](C)O3)Oc3ccc(cc3Cl)[C@H]2O)c2ccc(O)c(c2)-c2c(O)cc(O)cc21 | broth microdilution | ATCC 13883, cation-adjusted Mueller-Hinton broth | 18 to 20 h, 37 °C, 0.002% polysorbate 80 | > 128 µg/mL
